Results gathered from unrelated publications.
Parts stem from different laboratories: compare values within a part only. Substitutions count along the parent as printed.

Sample 1 — target: CCND1, cyclin fold, Cln2 fusion (human); technique: yeast growth competition, sequencing; matrix: yeast; notes: strong parent motif; relative to: not given; direction: higher = stronger binding
Starting sequence: RBL2 docking peptide (human); STTRRRLFVENDS; partner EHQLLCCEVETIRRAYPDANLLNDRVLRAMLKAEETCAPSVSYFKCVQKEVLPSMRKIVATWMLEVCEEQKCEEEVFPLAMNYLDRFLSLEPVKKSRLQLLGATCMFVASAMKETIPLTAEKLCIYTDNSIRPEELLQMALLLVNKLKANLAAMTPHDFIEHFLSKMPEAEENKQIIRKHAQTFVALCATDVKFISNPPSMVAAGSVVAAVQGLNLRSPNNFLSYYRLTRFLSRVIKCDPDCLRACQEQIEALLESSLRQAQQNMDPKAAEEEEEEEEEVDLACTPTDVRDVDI
Change	normalised enrichment score
S1D	0.503
R4C	3.08
S1M	0.43
V9I	0.791
L7P	0.706
S13R	0.749

Sample 2 — technique: DHFR PCA, deep sequencing; matrix: yeast; added: (+)-ABA 2500 µM; relative to: wild-type fitted maximum; direction: higher = stronger binding
Target: ABI1, truncated, D143A, DHFR fusion (Arabidopsis thaliana)
Notes: methotrexate growth selection, single substitutions
Starting sequence: PYL1, truncated, DHFR fusion (Arabidopsis thaliana); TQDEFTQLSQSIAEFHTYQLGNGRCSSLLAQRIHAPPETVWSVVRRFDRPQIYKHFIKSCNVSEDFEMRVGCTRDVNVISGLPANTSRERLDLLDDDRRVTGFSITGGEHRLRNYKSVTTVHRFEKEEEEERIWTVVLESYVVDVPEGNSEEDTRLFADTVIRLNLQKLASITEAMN
Change	relative binding score
D97C	99.7%
S27Q	99.7%
F103A	9.45%
C25W	74.7%
A175H	95.3%
S140Y	38.8%
S9T	101%
Y53F	94.4%
S140T	53.7%
N177W	81.6%

Sample 3 — technique: aptamer microarray, sandwich; molecule type: DNA with 2'F-ANA; matrix: in vitro; tested at: 200 nM; added: Cy3 exosite-II aptamer, 400 nM; direction: higher = stronger binding; oligonucleotide: GGTTGGTGTGGTTGG
Target: Prothrombin, mature alpha-thrombin (F2, Homo sapiens, UniProt P00734)
Notes: whole 15-mer aptamer, many near background
Modification	mean fluorescence intensity [a.u.]
2'F-ANA at 1 2 5 8 10 13	159
2'F-ANA at 2 5 7 8 9 11 12 13 14 15	48.3
2'F-ANA at 1 5 7 8 12 13 14 15	50.9
2'F-ANA at 4 5 8 9 10 13	43.8
2'F-ANA at 1 4 5 7 8 10 12 13 14	86.3
2'F-ANA at 3 4 11 13 14 15	320
2'F-ANA at 2 4 5 7 8 9 11 13 14	43.8
2'F-ANA at 1 2 3 4 5 7 11 12 15	90.5

Other studies, line by line
Substance	target	assay	test system	conditions	how to read	quantity	result
PhoQ, residues 284 288 289 292 302 303 TVTVVA	PhoP, residues 12 14 15 18 19 NQGLL (Escherichia coli, UniProt P23836)	Sort-seq, item: YFP reporter	E. coli	PhoQ-PhoP variant library, added: 10 µM Mg2+	relative to: high Mg2+ state, higher = stronger signaling	fold induction	2.54

Some of these lines once more (sample 2):
Change	relative binding score
D97C	99.7%
S140T	53.7%
F103A	9.45%
